Measured values collected from several papers.
A part holds a random share of what one study measured.

Set 1
Target: RNA binding protein fox-1 homolog 2, RRM domain, GST-SBP tag (RBFOX2, Homo sapiens, UniProt O43251-10, residues 100-194)
Technique: RNA Bind-n-Seq
Molecule type: RNA
Matrix: in vitro
Concentration: 365 nM
Notes: natural RNA segment, single round, ends assumed
Relative to: no-protein control
Direction: higher = stronger binding
Measurement: RBNS enrichment (R)
Constant ends, left off below: GGGAGUUCUACAGUCCGACGAUC … UGGAAUUCUCGGGUGCCAA
Residues (chain): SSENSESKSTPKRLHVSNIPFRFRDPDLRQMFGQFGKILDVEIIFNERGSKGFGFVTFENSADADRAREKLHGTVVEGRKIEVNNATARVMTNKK
GGGUUCAGAAUUGUAGCCUCAGCCUGUUUGACAAAGGUCUUGGGAACUCUGUGACUGCUUUGCCCACCAGUGUCAUCAUGUCAUUUGCCCUAAACACCUUGUAGUUGCUG: 0.707
CAAGUAUUUUAAAUAAAUAAUCUUAAAUUUUAAAAUACGUACUGCAGAGUAUGCCAGUAUCUUAUUGUUAAAACUGAAUCAAAUAAAUCUUCGAUUCCUGGUUAUUUGGA: 0.608
UCUCAUCCCUUUCACACUAGAUUCUCAGACAUGAAUGAAUUUGUCGUUUGGAAGGAAAGCUGGGUAACGUUUUGGGCACAGGGGAAGGAGGACUCCGGUCUUAACUCCCA: 0.282
AAAAAGCAAAUCUUUCUGUAAACAGAAUAAAAGUUCCUCUCCCUUCCCUUCCCUCACCCCUGACAUGUACCCCCUUUCCCUUCUGGCUGUUCCCCUGCUCUGUUGCCUCU: 1.59
GGCCAGGGAUGGCCGGAGAGCUUCGGGUUCCACUAUGUUCACAUGGAUGCCCCAGCGCCUGGGGUGAACAGCCAGACGCAGCAGACACGACUCCAGUGUCAGAGCAGGGC: 0.194
UCCUCAAACAGCAUGUUGUUGUUGGGGUGUUUUGUUUUGUUUUUGUUUGUUUUGGGUUUUUUUUUUUUUUUGCACAUGUAGAAAUUUUUUAAAAGAAGGAAAUUAAGACA: 9.84
AGCAUCUCAGUCAAGCAUCUAAAACAGGGGGCAGUCUGUGUAUACAAGAGCCCACCUCCUGCUGUGUGAUGUCAUCAGGACACCCCCACCCUCACCCCACCACCAGGGUC: 0.306
UCUGUUAACUGAAUGCUUUGAUCAGCAUUGAGGUGAUGCUCACCUCCGAGGACCUCAGAACUGGUGCAGCUUCUCUCUCCCUCCCUCCCACAGACUGAACCUUUCGCCAG: 0.501

Set 2
Target: Fragile X messenger ribonucleoprotein 1, C-terminal low-complexity region (Fmr1, Mus musculus, UniProt P35922)
Technique: RNA Bind-n-Seq
Molecule type: RNA
Matrix: in vitro
Concentration: 200 nM
Notes: whole 134-nt RNA, ends assumed
With: 150 mM LiCl
Relative to: input library
Direction: higher = stronger binding
Measurement: log2 enrichment
Library: 7-deaza-guanosine replaces G
Constant ends, left off below: GGGAGUUCUACAGUCCGACGAUC … UGGAAUUCUCGGGUGUCAAGG
UCGUUCCCCCCGCCACGAGAAGAAGAAGAAGGUCCGUAAAUACUGGGACGUGCCACCCCCAGGCUUUGAGCACAUCACCCCAAUGCAGUA: 2.4
CUCAAGUCCUGUGCUACACAUCGUAUGUACCGAAUCGGAAAGGUGGAAAAAGGAAAGUAUUAUGUUACGCCGUUCGGAUCUGCACUUCCA: 0.00562
GUGCUACACAUCGUAUGUACCGAAUCGGGGAAAAAAAGGGGUUUUUUUGGGGUUUUUUUGGGGAAAGUAUUAUGUUACGCCGUUCGGAUC: -2.58
GCAGGAAGUAAAAACAAAUGGAAAUGCUUCGCAUAGUGGCAGGGGUGGGGGUUGCUAAGGAAAGGGUGGGAUGGGAGUGGGUAAAGAGUU: 1.79
CUCAAGUCCUGUGCUACACAUCGUAUGUACCGAAUCGGAAAAAAAGGAGGAGGAAAGUAUUAUGUUACGCCGUUCGGAUCUGCACUUCCA: -0.842
UGGCCCUGGUGGCAUGCGGGGAGGAAGAGGUGGGCUCAUGGAUCGUGGUGGUCCCGGUGGAAUGUUCAGAGGUGGCCGUGGUGGAGACAG: 1.03
CCUCAAGUCCUGUGCUACACAUCGUAUGUACCGAAUCGGUGGAAAGGUUUGGAAAGUAUUAUGUUACGCCGUUCGGAUCUGCACUUCCAG: -0.734
UGGGAGGUGGAUUUUGUUUAUUUUUUUAGCUCAUUUCCAGAGGUGGGAAUUUUUUUUUAAUAUGUGUCAUGAAUAAAGUUGUUUUUGAAA: -0.543

Set 3
Target: Histone acetyltransferase KAT6A, winged helix 1, GST fusion (KAT6A, Homo sapiens, UniProt Q92794, residues 1-85)
Technique: protein binding microarray
Molecule type: double-stranded DNA, one strand shown
Matrix: in vitro
Concentration: not given
Notes: 8-mer, flanks averaged, mean of 2 arrays, mostly near background
Relative to: not given
Direction: higher = stronger binding
Measurement: E-score
Construct (chain): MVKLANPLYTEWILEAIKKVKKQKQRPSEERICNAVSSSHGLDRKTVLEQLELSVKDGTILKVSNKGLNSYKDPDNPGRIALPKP
CTCAATCC: -0.0458
AATTTGCT: -0.167
TGAGGAAA: -0.126
GGGTACAA: -0.132
CGATATAA: -0.0953
AGACGTTG: -0.121
GAATTAAA: -0.156
CCGATGGA: 0.0878
ATGTTGCG: 0.0977
AACACATT: -0.0842
ACTTTATC: -0.16
GATGCTGC: -0.0793
ACACCACT: -0.175
GGCCTAAC: -0.1
GGTTCCGA: 0.0305
CACCGGCG: 0.391
AAAGTGAG: -0.27
GATCTGGC: -0.0785
CCAGTAAC: 0.102

Set 4
Target: Sal-like protein 4, full length isoform B (SALL4, Homo sapiens, UniProt Q9UJQ4-2, residues 1-616)
Technique: universal PBM
Molecule type: double-stranded DNA, one strand shown
Matrix: in vitro
Concentration: not given
Notes: 8-mer, flanks averaged, mean of replicates
Direction: higher = stronger binding
Measurement: E-score
CGACGCGC: -0.0947
GGCGGAGA: -0.191
ATAACCGA: 0.213
CACGAGCG: -0.211
AAGTTGTG: 0.129
GGCGACTA: -0.059
TAAGCGAA: -0.0122
CGGGTGGA: -0.225
TCAGTAGA: 0.0862
CTAGTCTA: -0.109
GTGCATAA: 0.239
AACTCCGG: -0.21
GCTCCGAA: -0.0107
TCTAACAA: 0.222
CGACTATC: -0.135
TATCCAGA: 0.101
ATTGACAA: 0.198
ATAAGGGA: 0.148
GAGTGTAC: 0.012
CTGTTTCA: 0.0883
ACTAACCC: -0.169
AGTTGTAC: 0.131
GCCGACGA: -0.207
ACCTTTAC: 0.136
GAGAATGC: -0.126

Some of these lines once more (set 4):
CTAGTCTA: -0.109
GTGCATAA: 0.239
AACTCCGG: -0.21
GCTCCGAA: -0.0107
TCTAACAA: 0.222
CGACTATC: -0.135
TATCCAGA: 0.101
ATTGACAA: 0.198
ATAAGGGA: 0.148
GAGTGTAC: 0.012
